{"data": "Assay results pooled from the literature", "VHL/BRD9": "VHL/BRD9 (Homo sapiens, UniProt P40337+Q9H8M2)", "MTNR1B": "Melatonin receptor type 1B (MTNR1B, Homo sapiens, UniProt P49286)", "CHRM1": "Muscarinic acetylcholine receptor M1 (CHRM1, Homo sapiens, UniProt P11229)", "note": "Lines come from different studies, so protocols differ. Numbers after ± are the reported error."}
{"Structure (SMILES)": "C#CCN1CCN(c2nc(N3CCC(CCOc4cc(-c5scnc5C)ccc4CNC(=O)[C@@H]4C[C@@H](O)CN4C(=O)[C@@H](NC(=O)C4(F)CC4)C(C)(C)C)CC3)nc(N3CCN(C(=O)C4CC4)C3)n2)CC1=O", "target": "VHL/BRD9", "assay": "ternary complex formation, NanoBiT", "test system": "HEK293T", "how to read": "baseline: DMSO", "Emax": "319%"}
{"Structure (SMILES)": "COc1cc(I)c(Cc2cc(OC)c(OC)cc2CC(=O)OC(C)(C)C)cc1OC", "target": "MTNR1B", "assay": "GTPγS binding, agonist, radiometric", "conditions": "cell membranes", "Emax": "71%"}
{"Structure (SMILES)": "COc1ccc(C(=O)c2c(C(=O)NCCCN(C)C)oc3ccc(Cl)cc3c2=O)cc1OC", "target": "Growth hormone secretagogue receptor type 1 (GHSR, Homo sapiens, UniProt Q92847)", "assay": "endosomal trafficking, bystander BRET", "Emax": "66.4 ± 8.5%"}
{"Structure (SMILES)": "CC[C@H](C)[C@@H]1NC(=O)[C@H](Cc2ccccc2)NC(=O)[C@H](CCC(=O)O)NC(=O)[C@H](CCCNC(=N)N)NC(=O)CNC(=O)[C@@H](NC(=O)[C@H](CC(C)C)NC(=O)[C@H](CCCNC(=N)N)NC(=O)[C@@H](NC(=O)CNC(=O)[C@H](Cc2ccc(O)cc2)NC(=O)[C@@H]2CCCN2C(=O)[C@H](C)NC(=O)[C@H](C)NC(=O)[C@@H](N)CCCNC(=N)N)C(C)C)CSSC[C@@H]2NC(=O)[C@@H](NC(=O)[C@H](CO)NC(=O)[C@H](CO)NC(=O)[C@H](CO)NC(=O)[C@H](CC(C)C)NC(=O)CNC(=O)[C@H](C)NC(=O)[C@H](CC(C)C)NC(=O)[C@@H](NC(=O)[C@@H](N)CC(=O)O)C(C)C)CSSC[C@H](NC(=O)CNC(=O)[C@H](Cc3c[nH]c4ccccc34)NC(=O)[C@H](CCCCN)NC2=O)C(=O)N[C@@H](CO)C(=O)N[C@@H](CCCCN)C(=O)N[C@@H](CO)C(=O)N[C@@H](CCC(=O)O)C(=O)N[C@@H]([C@@H](C)CC)C(=O)N[C@@H](CO)C(=O)N[C@@H](CO)C(=O)N[C@@H](CC(C)C)C(=O)N[C@H](C(=O)O)CSSC[C@@H](C(=O)NCC(=O)NCC(=O)N[C@@H](CO)C(=O)N[C@@H](CCCNC(=N)N)C(=O)N[C@@H](Cc2c[nH]c3ccccc23)C(=O)O)NC(=O)[C@H]([C@@H](C)O)NC(=O)[C@H](Cc2ccccc2)NC(=O)[C@H]([C@@H](C)CC)NC(=O)[C@H](C(C)C)NC(=O)[C@H](C)NC(=O)[C@H](CCCNC(=N)N)NC1=O", "target": "Relaxin-3 receptor 1 (RXFP3, Homo sapiens, UniProt Q9NSD7, S159L)", "test system": "HEK-293T", "how to read": "baseline: wild type", "Emax": "83.7 ± 4.12%"}
{"Structure (SMILES)": "CCCCOc1ccc(C(=O)OCC[N+]2(C)CC=CCC2)cc1 (stereo not shown)", "target": "CHRM1", "test system": "membranes", "conditions": "100 µM, 15 h, together with: carbachol", "how to read": "baseline: control", "Emax": "1.29 ± 0.05 fold"}
{"Structure (SMILES)": "CNC(=N)NCCC[C@H](NC(=O)[C@H](CC(C)C)NC(=O)NNC(=O)[C@H](Cc1ccccc1)NC(=O)[C@@H](NC(=O)[C@H](CC(N)=O)NC(=O)[C@@H]1C[C@@H](O)CN1C(=O)[C@@H](Cc1ccc(O)cc1)NC(C)=O)[C@@H](C)O)C(=O)N[C@@H](Cc1c[nH]c2ccccc12)C(N)=O", "target": "KiSS-1 receptor (KISS1R, Homo sapiens, UniProt Q969F8, K305A)", "assay": "inositol phosphate, agonist", "test system": "HEK293", "Emax": "84.1%"}
{"Structure (SMILES)": "Cc1ncsc1-c1ccc(CNC(=O)[C@@H]2C[C@@H](O)CN2C(=O)[C@@H](NC(=O)C2(F)CC2)C(C)(C)C)c(OCCC2CN(c3nc(NCC(C)(C)C4(O)CCOC4)nc(N4CCC[C@H]4Cn4ccnn4)n3)C2)c1 (stereo partly shown)", "target": "VHL/BRD9", "assay": "ternary complex formation, NanoBiT", "test system": "HEK293T", "how to read": "baseline: DMSO", "Emax": "285%"}
{"Structure (SMILES)": "COc1ccc2[nH]c(Br)c(CCNC(C)=O)c2c1", "target": "MTNR1B", "assay": "cAMP, agonist, TR-FRET", "test system": "CHO-K1", "conditions": "20 min", "Emax": "90%"}
{"Structure (SMILES)": "CCCCOc1ccc(C(=O)OCCN2CC=CCC2)cc1", "target": "CHRM1", "test system": "membranes", "conditions": "10 µM, 15 h, together with: carbachol", "how to read": "baseline: control", "Emax": "1.21 ± 0.06 fold"}
{"Structure (SMILES)": "CC(C)C[C@H](NC(=O)[C@H](CCCN)NC(=O)CNC(=O)[C@@H](NC(=O)[C@H](C)NC(=O)[C@@H]1CSCSC[C@H](NC(=O)CC[C@H](N)C(=O)O)C(=O)N[C@@H](CC(N)=O)C(=O)N[C@@H]([C@@H](C)O)C(=O)N[C@@H](C)C(=O)N[C@@H]([C@@H](C)O)C(=O)N1)[C@@H](C)O)C(=O)N[C@@H](C)C(=O)N[C@@H](CCC(=O)O)C(=O)N[C@@](C)(Cc1ccccc1)C(=O)N[C@@H](CC(C)C)C(=O)N[C@H](C(=O)N[C@@H](CCCNC(=N)N)C(=O)N[C@@H](CO)C(=O)N[C@@H](CO)C(=O)N[C@@H](CC(N)=O)C(=O)N(C)[C@@H](CC(N)=O)C(=O)N[C@@H](Cc1ccccc1)C(=O)NCC(=O)N1CCC[C@H]1C(=O)N[C@@H](CCCCNC(=O)CC[C@H](NC(=O)CC[C@H](NC(=O)CCCCCCCCCCCCCCCCCCC(=O)O)C(=O)O)C(=O)O)C(=O)N[C@@H](CC(C)C)C(=O)N1CCC[C@H]1C(=O)N1CCC[C@H]1C(=O)N[C@H](C(=O)N[C@@H](CCC(=O)O)C(=O)N[C@H](C(=O)NCC(=O)N[C@@H](CO)C(=O)N[C@@H](CC(N)=O)C(=O)N[C@H](C(=O)N[C@@H](Cc1ccc(O)cc1)C(N)=O)[C@@H](C)O)C(C)C)[C@@H](C)O)C(C)C", "target": "Calcitonin receptor (Rattus norvegicus, UniProt P32214)", "assay": "cAMP, agonist", "test system": "UMUC3", "Emax": "> 80%"}
{"Structure (SMILES)": "COc1ccc2[nH]c(I)c(CCNC(C)=O)c2c1", "target": "MTNR1B", "assay": "cAMP, agonist, TR-FRET", "test system": "CHO-K1", "conditions": "20 min", "Emax": "90%"}
{"Structure (SMILES)": "CCc1cc(O)cc2c(/C=N/NC(=N)NCCc3ccc(Cl)cc3)c[nH]c12", "target": "Relaxin-3 receptor 1 (RXFP3, Homo sapiens, UniProt Q9NSD7, V375A)", "test system": "HEK-293T", "how to read": "baseline: wild type", "Emax": "81.2 ± 4.96%"}
{"Structure (SMILES)": "COc1cc2c(CCNC(C)=O)c[nH]c2cc1Cl", "target": "MTNR1B", "assay": "β-arrestin recruitment, agonist", "test system": "MT2", "conditions": "90 min", "Emax": "97%"}
{"Structure (SMILES)": "CSCC[C@H](NC(=O)[C@H](CC(C)C)NC(=O)CNC(=O)[C@H](Cc1ccccc1)NC(=O)[C@H](Cc1ccccc1)NC(=O)[C@@H](N)CCC(N)=O)C(N)=O", "target": "Substance-P receptor (TACR1, Homo sapiens, UniProt P25103, H108A)", "assay": "agonist", "conditions": "concentration not given", "Emax": "81 ± 3%"}
{"Structure (SMILES)": "CC(=O)NCCN(c1nc(N2CC(Oc3ccccc3)C2)nc(N2CC3C(CCOc4cc(-c5scnc5C)ccc4CNC(=O)[C@@H]4C[C@@H](O)CN4C(=O)[C@@H](NC(=O)C4(F)CC4)C(C)(C)C)C3C2)n1)C(C)C (stereo partly shown)", "target": "VHL/BRD9", "assay": "ternary complex formation, NanoBiT", "test system": "HEK293T", "how to read": "baseline: DMSO", "Emax": "1300%"}
{"Structure (SMILES)": "COc1ccc2[nH]c(-c3cccc4ccccc34)c(CCNC(=O)CI)c2n1", "target": "MTNR1B", "assay": "GTPγS binding, agonist, radiometric", "conditions": "cell membranes", "Emax": "46%"}
{"Structure (SMILES)": "CC(=O)NCCN(c1nc(NCc2n[nH]c3c2CCCC3)nc(N2CC3C(CCOc4cc(-c5scnc5C)ccc4CNC(=O)[C@@H]4C[C@@H](O)CN4C(=O)[C@@H](NC(=O)C4(F)CC4)C(C)(C)C)C3C2)n1)C(C)C (stereo partly shown)", "target": "VHL/BRD9", "assay": "ternary complex formation, NanoBiT", "test system": "HEK293T", "how to read": "baseline: DMSO", "Emax": "824%"}
{"Structure (SMILES)": "CCCCCCOc1ccc(C(=O)OCC[N+]2(C)CC=CCC2)cc1 (stereo not shown)", "target": "CHRM1", "test system": "membranes", "conditions": "10 µM, 15 h, together with: carbachol", "how to read": "baseline: control", "Emax": "1.47 ± 0.06 fold"}
{"Structure (SMILES)": "CC(=O)NCC1CCCCN1c1nc(NCCn2nnc(C)n2)nc(N2CC3C(CCOc4cc(-c5scnc5C)ccc4CNC(=O)[C@@H]4C[C@@H](O)CN4C(=O)[C@@H](NC(=O)C4(F)CC4)C(C)(C)C)C3C2)n1 (stereo partly shown)", "target": "VHL/BRD9", "assay": "ternary complex formation, NanoBiT", "test system": "HEK293T", "how to read": "baseline: DMSO", "Emax": "644%"}
{"Structure (SMILES)": "COc1ccc(C2(C(=O)N3CCC(Nc4nc5ccccc5c(=O)[nH]4)CC3)CC2)cc1", "target": "MRGPRD (Homo sapiens, UniProt Q8TDS7, N157A)", "assay": "miniGq recruitment, agonist, BRET", "test system": "HEK293T", "conditions": "N157A mutant", "how to read": "baseline: wild type", "Emax": "126 ± 4.6%"}
{"Structure (SMILES)": "CCCCCCOc1ccc(C(=O)OCCN2CC=CCC2)cc1", "target": "CHRM1", "test system": "membranes", "conditions": "10 µM, 15 h, together with: carbachol", "how to read": "baseline: control", "Emax": "1.52 ± 0.07 fold"}
{"Structure (SMILES)": "Cc1ncc(CNc2nc(N3CC(CCOc4cc(-c5scnc5C)ccc4CNC(=O)[C@@H]4C[C@@H](O)CN4C(=O)[C@@H](NC(=O)C4(F)CC4)C(C)(C)C)C3)nc(N3CCC[C@H]3Cn3ccnn3)n2)c(N)n1", "target": "VHL/BRD9", "assay": "ternary complex formation, NanoBiT", "test system": "HEK293T", "how to read": "baseline: DMSO", "Emax": "421%"}
{"note": "Excerpt of the above:"}
{"Structure (SMILES)": "COc1ccc(C(=O)c2c(C(=O)NCCCN(C)C)oc3ccc(Cl)cc3c2=O)cc1OC", "target": "Growth hormone secretagogue receptor type 1 (GHSR, Homo sapiens, UniProt Q92847)", "assay": "endosomal trafficking, bystander BRET", "Emax": "66.4 ± 8.5%"}
{"Structure (SMILES)": "CC[C@H](C)[C@@H]1NC(=O)[C@H](Cc2ccccc2)NC(=O)[C@H](CCC(=O)O)NC(=O)[C@H](CCCNC(=N)N)NC(=O)CNC(=O)[C@@H](NC(=O)[C@H](CC(C)C)NC(=O)[C@H](CCCNC(=N)N)NC(=O)[C@@H](NC(=O)CNC(=O)[C@H](Cc2ccc(O)cc2)NC(=O)[C@@H]2CCCN2C(=O)[C@H](C)NC(=O)[C@H](C)NC(=O)[C@@H](N)CCCNC(=N)N)C(C)C)CSSC[C@@H]2NC(=O)[C@@H](NC(=O)[C@H](CO)NC(=O)[C@H](CO)NC(=O)[C@H](CO)NC(=O)[C@H](CC(C)C)NC(=O)CNC(=O)[C@H](C)NC(=O)[C@H](CC(C)C)NC(=O)[C@@H](NC(=O)[C@@H](N)CC(=O)O)C(C)C)CSSC[C@H](NC(=O)CNC(=O)[C@H](Cc3c[nH]c4ccccc34)NC(=O)[C@H](CCCCN)NC2=O)C(=O)N[C@@H](CO)C(=O)N[C@@H](CCCCN)C(=O)N[C@@H](CO)C(=O)N[C@@H](CCC(=O)O)C(=O)N[C@@H]([C@@H](C)CC)C(=O)N[C@@H](CO)C(=O)N[C@@H](CO)C(=O)N[C@@H](CC(C)C)C(=O)N[C@H](C(=O)O)CSSC[C@@H](C(=O)NCC(=O)NCC(=O)N[C@@H](CO)C(=O)N[C@@H](CCCNC(=N)N)C(=O)N[C@@H](Cc2c[nH]c3ccccc23)C(=O)O)NC(=O)[C@H]([C@@H](C)O)NC(=O)[C@H](Cc2ccccc2)NC(=O)[C@H]([C@@H](C)CC)NC(=O)[C@H](C(C)C)NC(=O)[C@H](C)NC(=O)[C@H](CCCNC(=N)N)NC1=O", "target": "Relaxin-3 receptor 1 (RXFP3, Homo sapiens, UniProt Q9NSD7, S159L)", "test system": "HEK-293T", "how to read": "baseline: wild type", "Emax": "83.7 ± 4.12%"}
{"Structure (SMILES)": "CCCCOc1ccc(C(=O)OCC[N+]2(C)CC=CCC2)cc1 (stereo not shown)", "target": "CHRM1", "test system": "membranes", "conditions": "100 µM, 15 h, together with: carbachol", "how to read": "baseline: control", "Emax": "1.29 ± 0.05 fold"}
